Measurements gathered from unrelated publications.
A part holds a random share of what one study measured.

Study 1 — method: protein-binding microarray; molecule type: double-stranded DNA, one strand shown; sample: in vitro; tested at: 250 nM; notes: 60-bp whole probe; together with: salmon DNA 0.4 mg/ml; baseline: random background probes; reading: higher = stronger binding; constant ends, left off below: GCCTAGCAC … GTCTTGATTCGCTTGACGCTGCTG
Target: Interferon regulatory factor 7, full length, phosphomimetic (IRF7, Homo sapiens, UniProt Q92985, residues 1-503, S101K/S471D/S472D/S475D/S476D/S477D/S483D/S484D/S487D)
Target sequence (chain): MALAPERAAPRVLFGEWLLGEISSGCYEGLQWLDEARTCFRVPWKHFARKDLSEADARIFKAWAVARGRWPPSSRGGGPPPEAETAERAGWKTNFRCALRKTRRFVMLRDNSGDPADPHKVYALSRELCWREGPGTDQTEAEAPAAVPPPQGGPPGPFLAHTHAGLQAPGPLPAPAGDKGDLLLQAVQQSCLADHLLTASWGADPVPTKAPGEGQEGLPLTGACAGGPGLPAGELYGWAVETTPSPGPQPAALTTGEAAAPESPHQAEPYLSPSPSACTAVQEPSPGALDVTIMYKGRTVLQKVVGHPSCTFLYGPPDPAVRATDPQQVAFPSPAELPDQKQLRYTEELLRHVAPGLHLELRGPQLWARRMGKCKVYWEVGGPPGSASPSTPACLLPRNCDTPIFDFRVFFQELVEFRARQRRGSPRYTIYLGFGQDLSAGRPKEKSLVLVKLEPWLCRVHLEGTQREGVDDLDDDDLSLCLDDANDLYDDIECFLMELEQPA
Sequence	log fluorescence [z-score]
GACGGTTTCGATTCCGGGACGTGCTAG	12.6
GACGGTTTCCTTTCCCTAACGTGCTAG	5
TCAGTTTTCTCTCCCATACTGTGCTAG	1.09
GACGGAATCCTACTGCTGACGTGCTAG	-0.535
TCATGCCTATTTTTCACACTGTGCTAG	0.412
TGATTTTGGTCTTTCTGTTTGTGCTAG	0.979
GACGGTTACGGACTGGGGACGTGCTAG	-0.306
TGAGGACTGCTTCTCCTTTAGTGCTAG	0.135
TCAAGAATGCCTTTAATACTGTGCTAG	-0.325
TCCATCATTGCTTTCTCTTTGTGCTAG	0.666
TTAGGTATCGGTACCGGTTAGTGCTAG	1.16
GACTGACTGGGTCTCGGGACGTGCTAG	-0.304
GACGCTTTCAGTTCCGAGACGTGCTAG	1.13
GAAGAACTGGGGACTGGAGACGTGCTA	-0.821
GACGATCTCAGTATCAAGACGTGCTAG	-0.0395
TTAGGGATCGGGTTTCGGTTAGTGCTA	6.71
GACGATATCATACTGGAGACGTGCTAG	-0.308
GACGAACTGGGGACTGGAGAAGTGCTA	-0.587

Study 2 — method: protein binding microarray; molecule type: double-stranded DNA, one strand shown; sample: in vitro; tested at: not given; baseline: not given; reading: higher = stronger binding
Target: Histone acetyltransferase KAT6A, winged helix 1, GST fusion (KAT6A, Homo sapiens, UniProt Q92794, residues 1-85)
Notes: 8-mer, flanks averaged, mean of 2 arrays, mostly near background
Target sequence (chain): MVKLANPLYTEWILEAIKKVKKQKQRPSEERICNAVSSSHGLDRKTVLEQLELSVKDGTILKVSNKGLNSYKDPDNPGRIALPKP
Sequence	E-score
CGCGACAC	0.211
TTAGGAAA	-0.121
AAGCTGGC	-0.0203
GTGAACAC	-0.03
TCGTGCAA	-0.138
CTGCTAAC	-0.171
GATTTTGA	-0.163
CGCTAAGA	0.153
AACAAACA	-0.219
TAGTAGGA	-0.0701
ATACTAGA	-0.137
TGCCCGAA	-0.181
ACGGAGTA	0.169
ACGACTCG	-0.0813
CTAAGTCC	-0.0856
AGGTTACA	0.018
TCCTCCAA	-0.198
CCTATATC	-0.0836
CCTTATAA	-0.0173
ATATTCGA	-0.00677
ATAGAATG	-0.0579
ACTCAAAA	-0.128
GTGCGGAA	0.125
CAAAAATC	-0.128
ATAAATTG	-0.155

Study 3 — method: RNA Bind-n-Seq; molecule type: RNA; sample: in vitro; tested at: 1 µM; notes: whole 134-nt RNA, ends assumed; together with: 150 mM KCl; baseline: input library; reading: higher = stronger binding
Target: Ras GTPase-activating protein-binding protein 1, C-terminal RGG region (G3BP1, Homo sapiens, UniProt Q13283)
Sequence of UniProt Q13283 (whole entry, looked up): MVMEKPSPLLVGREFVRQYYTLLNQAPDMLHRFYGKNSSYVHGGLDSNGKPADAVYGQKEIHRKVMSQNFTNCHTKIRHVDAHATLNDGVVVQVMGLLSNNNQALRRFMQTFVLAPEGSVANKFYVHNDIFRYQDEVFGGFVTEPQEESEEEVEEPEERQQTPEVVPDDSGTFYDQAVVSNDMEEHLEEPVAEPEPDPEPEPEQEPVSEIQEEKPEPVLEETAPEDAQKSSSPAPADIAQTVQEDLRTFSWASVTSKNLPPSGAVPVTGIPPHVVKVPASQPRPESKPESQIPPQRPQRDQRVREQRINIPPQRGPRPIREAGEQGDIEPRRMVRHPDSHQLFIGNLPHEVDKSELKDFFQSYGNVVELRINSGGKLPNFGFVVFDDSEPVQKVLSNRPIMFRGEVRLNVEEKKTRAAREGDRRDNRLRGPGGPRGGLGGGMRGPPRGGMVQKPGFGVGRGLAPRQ
Constant ends, left off below: GGGAGUUCUACAGUCCGACGAUC … UGGAAUUCUCGGGUGUCAAGG
Sequence	log2 enrichment
UUCUUGCCUAUGCUGUGCGCCACACCAUCCAGGUGUACCGGCUCUCCAAGUACAACACGGAAGAAUUCAUCACAGUCUACCCCACCGACC	0.263
UCCUCAAGUCCUGUGCUACACAUCGUAUGUACCGAAUCGGGUGGUGGGUGGAAAGUAUUAUGUUACGCCGUUCGGAUCUGCACUUCCAGC	-0.154
CAAGUCCUGUGCUACACAUCGUAUGUACCGAAUCGGAAAGGAAAAAAAGGUUUGGAAAGUAUUAUGUUACGCCGUUCGGAUCUGCACUUC	-2.1
GUCCUGUGCUACACAUCGUAUGUACCGAAUCGGGUUUUUGGGUUUGGGAAAAAAAGGGAAAGUAUUAUGUUACGCCGUUCGGAUCUGCAC	-0.886
CAAGUCCUGUGCUACACAUCGUAUGUACCGAAUCGGGGUUUGGUUUGGGUUUGGGAAAGUAUUAUGUUACGCCGUUCGGAUCUGCACUUC	-0.855
UAACUUUAGAGGAGGAUCUGAUGGAUAUGGCAGUGGACGUGGAUUUGGGGAUGGCUCUAAUGGGUAUGGAGGAGGACCUGGAGGUGGCAA	-1.23
UGGUAAGAAAUCUGCUUGUUUUAUUAAAAUGCUUAAUUGAAGAAAAUAAUAUUCUUCUGUGAUUAAAAUUAGGAAGAAAUAGAACCAUUU	-1.65
CACAGACAACACGCACCCACACAGACACAGAGGGAAGGGGUUGGGAUGGGGACAGGGUGCACAGCAGGGCGGGGUAGGAGCCCAGCCCCU	-0.807
AGUCCUGUGCUACACAUCGUAUGUACCGAAUCAAACCCAAAUUUUUAAAUUUUUAAAAAAGUAUUAUGUUACGCCGUUCGGAUCUGCACU	-1.27
CAAGUCCUGUGCUACACAUCGUAUGUACCGAAUCGGGAAAGGGUGGGAAAAAGGGAAAGUAUUAUGUUACGCCGUUCGGAUCUGCACUUC	1.57
GCAGGAAGUAAAAACAAAUGGAAAUGCUUCGGAUAGUGGCAGGGGUGGGGGUUGCUAAGGAAGGGGUGGGAUGGGAGUGGGUAAAGAGUU	1.68
ACCAUGCAGGUGGGCAUCUUUGGGAAGUGGGGCAAGGAAAGGAUAGGGAGGGGGGUAACACUUUGGGAACAGGUGGUCCCAGGUCGUUUC	-0.988
GCAGGAAGUAAAAACAAAUGGAAAUGCUUCGGAUAGUGGCAGUGGUGGGGGUUGCUAAGGAAAGGGUGGGAUGGGAGUGGGUAAAGAGUU	1.29
ACCAUGCAGGUGGGCAUCUUUGGGAUGUGGGGCAAGGGGGGGAUAGGGAGGGGGGUAACACUUUGGGAACAGGUGGUCCCAGGUCGUUUC	-1.14

Study 4 — method: RNA Bind-n-Seq; molecule type: RNA; sample: in vitro; tested at: 365 nM; baseline: no-protein control; reading: higher = stronger binding
Target: RNA binding protein fox-1 homolog 2, RRM domain, GST-SBP tag (RBFOX2, Homo sapiens, UniProt O43251-10, residues 100-194)
Notes: natural RNA segment, single round, ends assumed
Constant ends, left off below: GGGAGUUCUACAGUCCGACGAUC … UGGAAUUCUCGGGUGCCAA
Residues (chain): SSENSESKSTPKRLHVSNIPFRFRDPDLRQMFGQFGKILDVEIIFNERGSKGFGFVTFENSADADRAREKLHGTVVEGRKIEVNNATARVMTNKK
Sequence	RBNS enrichment (R)
AAAUCCAGCUUUUGUUUGCCAGCCAAAUAGGGAGAGAUGCUCAAAGAAGCUUCAAGAAAGCACUGGGUUGUAGGUGUUAAAAUAUCCUCUAGUGAUGUUCACCACUUUUA	0.488
UCCAAGUCGAGAACACUUGAACACACAGAAGGGAGACCCCGCCUAGCAUAGAUUUGCAGUUACGGCCUGGAUGCCAGUCGCCAGCCCAGCUGUUCCCCUCGGGAACAUGA	6.17
AGGACUCCUGCCAGACCACACAGCCCACACCUGGCCCUGUUCACGGCUGUUCCACCCACCCCUCUUUAUUCUGGAGCAUAUCAGGGAAAGAAAAGUUGAUGAUAGAUUGC	0.515
GGCCACCCUGCCCAGGACCCAGGCCCGCCUCCCCCUCCACACUCAGGAUGUCCUGCUCCAUCUGGCCGGCUCACUCCGUGUGGCCUGCCUUUGCUGACCGUUUUGGGGUU	0.338
UUUUUUUUUGAAAGAGUUCUCCUCAUAGGAGGAUGAUUCAGCAUCAGAAGAAGAAGGAACCCAUAGCUUGGUGUCAUUAACAUAAUUAUUUUAAGCCUUAUCCAGCAGCC	0.414
AAUGAAUCUUUGAAAUUUUUUAUUGUUGAAAAAGUGUUAAGUAACAUAAAUCUAAUCAGAUAUCUUAUGUAGUCCAUCUCUGCUGGCUUUAGUAACUGCUCCUAAACUUU	0.679
CAUUCCUGAUUUAGCUAUUAUUUCUUUGUCUGAAGUCUGCCAUACUCACUUUGGGCCAGAGAGAGGUUACCUCACAGUGUGCUUCUGACGUCACAUUUCUCGGCCUCCGA	0.227
UAUCUAGAAGACCCUCCAAAAAAGGAACCACAUAAGCACACAAGAAAAGAGUGCUAUGAUGUUCUUAGCAUUUGCUAUCAUGCCUAUUUUUAUCUAGAUUUUUAAAUGUA	0.58
GCUUUACAUCAUUGCUACUUGAUUUUGUUAUGCAACUCAGAUCUCAGAUCUCAGAAUACUUAACCAAGCCAUUACAUCUUAAAACAAAACAAGUAGCAUACAUUUUGUAA	0.46
UUAAUGGAACAUUGUACAGUGAAGAGACGACCUGGCAAGUUCUUUGUAGACGUGUUUCAGUGCCUCGUCUGAACAGGAGCCGUUUCACUUCUUUGAAACUCUACAUUUUC	0.822
AGCACUAGAUUUAAUGGGGCCAAGAGGGUCCAAACCCCUUGCUAACAUACCACUUCUUUGUUUAACUCCUUUACCUUUCCAGCCCUUUGAGGAGGGACCAUGAGAACAGA	0.82
CACAUAGUAGGUGCUUGGUAAAAUAUCUGUGGUACUGAAUGUUGAGCACAGGUGCCCAAGUCAGAGAGCUGAAAGCCAUCACCCAAUGACUGCCCCUUCAUUCGGGUCUC	1.46

Excerpt of the above (study 1):
Sequence	log fluorescence [z-score]
GAAGAACTGGGGACTGGAGACGTGCTA	-0.821
GACGATCTCAGTATCAAGACGTGCTAG	-0.0395
TTAGGGATCGGGTTTCGGTTAGTGCTA	6.71
GACGATATCATACTGGAGACGTGCTAG	-0.308
